Published values of several laboratories.
Protocols differ between the studies behind these lines.
Target: Mitogen-activated protein kinase kinase kinase kinase 2 (MAP4K2, Homo sapiens, UniProt Q12851)

C=CC(=O)N1Cc2nc(-c3cc(-c4cc(Cl)cnc4Cl)c(F)cc3F)n(-c3ccncn3)c2C1
inhibition (cell-free assay, inhibitor; 1 µM): -5%

C=CC(=O)Nc1cccc(-c2cnc3[nH]cc(C(=O)NC(C)(C)C)c3n2)c1
inhibition (enzyme activity, inhibitor; 0.1 µM): 71%

COc1cc(Nc2nccc(-c3cnn4nc(OC)ccc34)n2)cc(C(F)(F)F)c1
remaining binding (binding, competition with immobilised ligand; 1 µM): 92%

CNC(=O)C1CCN(c2cc(C)c(F)cc2NC(=O)c2ccc(-c3cc(O)ccc3C)c(C)c2)CC1
remaining binding (binding, competition with immobilised ligand; 1 µM): 64%

Cc1cccc(O[C@H]2CCC[C@@H](C(C)CNCc3ccncc3)C2)c1 (relative stereo)
inhibition (enzyme activity, inhibitor; 1 µM): 1%

CCn1cc(C(=O)O)c(=O)c2c(N)c(F)c(NC3CCCCC3)cc21
inhibition (kinase activity; 0.1 µM, together with: ATP at Km): -2.2%

Cc1ccc(-c2c(/C=C(\C#N)C(=O)NC(C)C)n(CCCO)c3ncnc(N)c23)cc1
remaining binding (cell-free assay, competition with immobilised ligand; 1 µM): 77%

CN1CCN(Cc2ccc(-c3ccc(CO[C@H]4CCC[C@@H]4NC(=O)c4cc(-c5cnn(C)c5)cnc4N)cc3)cc2)CC1
inhibition (enzyme activity, inhibitor; 0.1 µM): 2%

NC(=O)[C@@H](O)C[C@H]1CCc2sc3ncnc(O[C@H]4CC[C@H](N5CCOCC5)CC4)c3c21
inhibition (enzyme activity, inhibitor; 10 µM): 9%

CN1CC[C@@H](COc2cnc(C#N)cc2-c2ccn3nc(NC(=O)C4CC4)cc3c2)C1
inhibition (enzyme activity, inhibitor; 1 µM): -1%

Nc1ncc2c(n1)-c1c([nH]c3ccc(C4=CCOCC4)cc13)CCC2
remaining binding (binding, competition with immobilised ligand; 1 µM): 94%

O=C=[N][Ru-4]123([n]4c5ccc(O)cc5c5c6c(c7cc(F)c[n+]1c7c54)C(=O)NC6=O)[S+]1CC[S+]2CC[S+]3CC1 (centres unmarked)
remaining activity (enzyme activity; 100 nM, human enzyme, together with: 10 µM ATP; reference: untreated): 109%

COc1c(OCCCN2CCOCC2)ccc2c1N=C(NC(=O)c1cnc(N)nc1)N1CCN=C21
remaining activity (kinase activity, inhibitor; 1 µM; reference: untreated control): 95%

COc1ccc(NC(=O)Nc2ccc3c(c2)C(=O)N(C(C)CO)CC(C)C(CN(C)Cc2ccc4c(c2)OCO4)O3)cc1 (centres unmarked)
remaining activity (kinase activity, KinaseProfiler; 0.03 µM, species human; reference: control): 97%

For quick reference, copied from above:
C=CC(=O)Nc1cccc(-c2cnc3[nH]cc(C(=O)NC(C)(C)C)c3n2)c1
inhibition (enzyme activity, inhibitor; 0.1 µM): 71%

CNC(=O)C1CCN(c2cc(C)c(F)cc2NC(=O)c2ccc(-c3cc(O)ccc3C)c(C)c2)CC1
remaining binding (binding, competition with immobilised ligand; 1 µM): 64%
